{"data": "Measured values of several laboratories", "histidine kinase ComD": "histidine kinase ComD (Streptococcus pneumoniae serotype 4, UniProt A0A0H2US84)", "note": "Protocols differ between the studies behind these lines. Numbers after ± are the reported error.", "UniProt P10826, sequence (whole entry, looked up)": "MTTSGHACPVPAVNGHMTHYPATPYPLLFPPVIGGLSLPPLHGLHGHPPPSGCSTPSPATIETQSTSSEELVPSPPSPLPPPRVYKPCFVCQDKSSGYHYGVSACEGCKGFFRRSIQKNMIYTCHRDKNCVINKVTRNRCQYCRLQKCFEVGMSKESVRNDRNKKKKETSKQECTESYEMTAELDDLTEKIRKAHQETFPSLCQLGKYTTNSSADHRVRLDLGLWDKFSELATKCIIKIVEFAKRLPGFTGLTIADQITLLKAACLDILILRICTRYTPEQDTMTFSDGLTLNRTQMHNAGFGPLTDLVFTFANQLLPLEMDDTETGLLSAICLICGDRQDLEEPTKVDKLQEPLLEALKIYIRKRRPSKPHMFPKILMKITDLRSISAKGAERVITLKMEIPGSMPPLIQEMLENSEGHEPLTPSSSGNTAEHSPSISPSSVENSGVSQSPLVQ", "UniProt P08482, sequence (whole entry, looked up)": "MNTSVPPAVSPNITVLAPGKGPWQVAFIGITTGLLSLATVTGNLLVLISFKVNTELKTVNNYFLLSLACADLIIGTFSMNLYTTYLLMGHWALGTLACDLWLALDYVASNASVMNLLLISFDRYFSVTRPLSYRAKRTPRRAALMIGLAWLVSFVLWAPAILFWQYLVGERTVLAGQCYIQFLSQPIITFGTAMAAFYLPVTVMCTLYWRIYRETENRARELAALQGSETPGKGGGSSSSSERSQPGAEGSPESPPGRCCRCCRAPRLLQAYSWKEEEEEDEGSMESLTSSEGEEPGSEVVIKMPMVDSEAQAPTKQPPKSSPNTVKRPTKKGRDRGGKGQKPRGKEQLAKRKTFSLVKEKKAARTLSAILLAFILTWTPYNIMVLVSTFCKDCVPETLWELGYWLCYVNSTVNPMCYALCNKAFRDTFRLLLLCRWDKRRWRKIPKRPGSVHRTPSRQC", "UniProt P35462, sequence (whole entry, looked up)": "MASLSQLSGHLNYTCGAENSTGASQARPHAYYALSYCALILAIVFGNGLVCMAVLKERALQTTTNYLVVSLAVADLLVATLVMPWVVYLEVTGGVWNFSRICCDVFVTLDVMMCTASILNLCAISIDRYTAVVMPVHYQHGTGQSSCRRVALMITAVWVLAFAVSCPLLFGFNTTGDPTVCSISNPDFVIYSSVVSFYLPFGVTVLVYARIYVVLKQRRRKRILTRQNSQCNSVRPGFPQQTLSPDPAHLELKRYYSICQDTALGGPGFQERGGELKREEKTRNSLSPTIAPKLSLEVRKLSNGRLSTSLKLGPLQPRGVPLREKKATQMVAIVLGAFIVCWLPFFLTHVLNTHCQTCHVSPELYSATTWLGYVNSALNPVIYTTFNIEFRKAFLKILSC", "UniProt P33533, sequence (whole entry, looked up)": "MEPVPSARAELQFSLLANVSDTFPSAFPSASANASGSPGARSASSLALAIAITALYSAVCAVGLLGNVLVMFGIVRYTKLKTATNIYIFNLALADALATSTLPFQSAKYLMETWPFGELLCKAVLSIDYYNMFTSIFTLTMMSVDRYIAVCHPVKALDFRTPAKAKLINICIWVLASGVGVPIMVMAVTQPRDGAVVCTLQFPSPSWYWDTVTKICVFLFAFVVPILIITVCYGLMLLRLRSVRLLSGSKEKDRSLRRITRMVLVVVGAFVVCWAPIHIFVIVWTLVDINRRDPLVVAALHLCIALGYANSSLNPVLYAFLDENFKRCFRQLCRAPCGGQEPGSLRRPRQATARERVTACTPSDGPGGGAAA", "UniProt P43220, sequence (whole entry, looked up)": "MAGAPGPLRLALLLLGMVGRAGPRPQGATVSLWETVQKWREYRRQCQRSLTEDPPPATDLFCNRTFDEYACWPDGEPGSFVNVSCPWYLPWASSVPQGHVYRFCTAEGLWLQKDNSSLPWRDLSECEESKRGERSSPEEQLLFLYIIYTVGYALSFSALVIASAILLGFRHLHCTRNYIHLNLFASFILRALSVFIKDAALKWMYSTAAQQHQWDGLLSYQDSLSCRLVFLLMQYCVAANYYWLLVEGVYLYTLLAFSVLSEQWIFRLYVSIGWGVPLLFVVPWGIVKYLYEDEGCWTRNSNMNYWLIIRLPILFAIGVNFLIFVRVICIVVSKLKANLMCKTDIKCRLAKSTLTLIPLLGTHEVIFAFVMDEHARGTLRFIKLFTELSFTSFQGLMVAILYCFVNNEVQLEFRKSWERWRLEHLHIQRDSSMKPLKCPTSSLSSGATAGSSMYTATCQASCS", "UniProt Q704Y3, sequence (whole entry, unmodified, looked up)": "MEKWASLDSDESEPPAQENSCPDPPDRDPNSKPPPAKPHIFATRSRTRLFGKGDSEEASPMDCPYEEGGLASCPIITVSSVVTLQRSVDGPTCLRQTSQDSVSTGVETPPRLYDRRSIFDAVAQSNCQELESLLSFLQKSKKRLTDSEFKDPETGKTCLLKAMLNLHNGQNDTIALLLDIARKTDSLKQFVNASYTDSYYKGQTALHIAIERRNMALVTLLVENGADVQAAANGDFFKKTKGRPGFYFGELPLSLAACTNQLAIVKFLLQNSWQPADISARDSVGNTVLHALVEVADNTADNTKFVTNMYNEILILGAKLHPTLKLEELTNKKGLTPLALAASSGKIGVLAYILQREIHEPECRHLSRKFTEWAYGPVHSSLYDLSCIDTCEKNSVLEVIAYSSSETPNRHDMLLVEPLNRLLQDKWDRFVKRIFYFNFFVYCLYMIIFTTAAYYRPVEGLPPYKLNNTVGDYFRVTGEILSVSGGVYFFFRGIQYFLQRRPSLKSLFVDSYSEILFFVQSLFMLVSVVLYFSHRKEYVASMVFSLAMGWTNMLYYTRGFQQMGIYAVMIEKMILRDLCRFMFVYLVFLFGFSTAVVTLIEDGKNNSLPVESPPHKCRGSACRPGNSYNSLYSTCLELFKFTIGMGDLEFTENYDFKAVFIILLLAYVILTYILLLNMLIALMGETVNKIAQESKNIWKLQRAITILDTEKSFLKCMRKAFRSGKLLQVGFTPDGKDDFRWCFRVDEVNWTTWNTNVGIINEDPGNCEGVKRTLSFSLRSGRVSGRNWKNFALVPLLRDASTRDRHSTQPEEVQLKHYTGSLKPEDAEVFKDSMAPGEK"}
{"Structure (SMILES)": "CCCCC/C=C\\C/C=C\\C/C=C\\C/C=C\\CCCC(=O)NCCc1ccc(O)c(O)c1", "target": "Transient receptor potential cation channel subfamily V member 1 (Trpv1, Mus musculus, UniProt Q704Y3, T551V)", "assay": "ion current, agonist, whole-cell patch clamp", "conditions": "24 °C, T551V, +80 mV", "EC50 [µM]": "0.09 ± 0.04"}
{"Structure (SMILES)": "Cc1cc(O)cc(C)c1CC(N)C(=O)NC1CCNc2c(Cc3ccccc3)cc(Cc3ccccc3)cc21 (stereo not shown)", "target": "Delta-type opioid receptor (Oprd1, Rattus norvegicus, UniProt P33533)", "assay": "GTPγS binding, agonist, radiometric", "conditions": "cell membranes", "EC50 [µM]": 0.38}
{"Structure (SMILES)": "CC(C)C[C@@H]1NC(=O)[C@H](Cc2ccc(O)cc2)NC(=O)[C@H](CO)NC(=O)[C@H](C)NC(=O)[C@@H](NC(=O)[C@@H](NC(=O)[C@H](CC(N)=O)NC(=O)[C@H](Cc2ccc(O)cc2)NC(=O)[C@@H](N)CCCCN)C(C)C)CSC1=O", "target": "Accessory gene regulator protein C (Staphylococcus epidermidis, UniProt Q8VSX2)", "EC50 [µM]": "> 2"}
{"Structure (SMILES)": "CC1(C)CCC(C)(C)c2c1cc(C(=O)Nc1cc(F)c(C(=O)O)c(F)c1)c(O)c2Cl", "target": "Retinoic acid receptor beta (RARB, Homo sapiens, UniProt P10826)", "assay": "reporter gene, agonist, luciferase", "EC50 [µM]": "> 5"}
{"Structure (SMILES)": "CC[C@H](C)[C@H](NC(=O)[C@H](Cc1ccccc1)NC(=O)[C@@H]1CNC(=O)NCC[C@H](NC(=O)[C@H](CO)NC(=O)[C@H](CC(C)C)NC(=O)[C@H](CCCNC(=N)N)NC(=O)[C@H](CCSC)NC(=O)[C@H](C)N)C(=O)N[C@@H](Cc2ccccc2)C(=O)N[C@@H](Cc2ccccc2)C(=O)N[C@@H](CCCNC(=N)N)C(=O)N1)C(=O)N[C@@H](CC(C)C)C(=O)N[C@@H](CCC(N)=O)C(=O)N[C@@H](CCCNC(=N)N)C(=O)N[C@@H](CCCCN)C(=O)N[C@@H](CCCCN)C(=O)O", "target": "histidine kinase ComD", "system": "Streptococcus pneumoniae", "EC50 [µM]": "> 1"}
{"Structure (SMILES)": "CNC(C)CCc1ccccc1Cl (racemic)", "target": "D(3) dopamine receptor (DRD3, Homo sapiens, UniProt P35462)", "assay": "β-arrestin recruitment, agonist", "EC50 [µM]": 6.8}
{"Structure (SMILES)": "CC[C@H](C)[C@H](NC(=O)[C@H](Cc1c[nH]cn1)NC(=O)[C@@H](NC(=O)[C@H](CCC(N)=O)NC(=O)[C@H](CCCNC(=N)N)NC(=O)[C@@H](NC(=O)[C@@H](N)CCC(=O)O)[C@@H](C)CC)[C@@H](C)O)C(=O)N[C@H](C(=O)N[C@@H](Cc1ccccc1)C(=O)N[C@@H](Cc1ccccc1)C(=O)N[C@@H](Cc1ccccc1)C(=O)N[C@@H](Cc1ccccc1)C(=O)N[C@@H](Cc1ccccc1)C(=O)N[C@@H](CCCCN)C(=O)N[C@@H](CCCNC(=N)N)C(=O)N[C@@H](CCCNC(=N)N)C(=O)O)[C@@H](C)CC", "target": "histidine kinase ComD", "assay": "reporter gene, agonist", "system": "Streptococcus pneumoniae, TIGR4 comX::lacZ", "conditions": "30 min, pH 7.3, 37 °C", "EC50 [µM]": "> 10"}
{"Structure (SMILES)": "CC[C@H](C)[C@H](NC(=O)[C@H](CC(N)=O)NC(=O)[C@H](CC(N)=O)NC(=O)[C@H](CCCNC(=N)N)NC(=O)[C@H](CC(N)=O)NC(=O)[C@H](CCCNC(=N)N)NC(=O)[C@H](CCCCN)NC(=O)[C@@H](NC(=O)[C@H](CC(N)=O)NC(=O)[C@H](CCSC)NC(=O)[C@H](CC(C)C)NC(=O)[C@H](Cc1c[nH]c2ccccc12)NC(=O)[C@H](CS)NC(=O)[C@@H](NC(=O)[C@H](Cc1ccccc1)NC(=O)[C@H](CC(=O)O)NC(=O)[C@H](CCC(N)=O)NC(=O)[C@H](C)NC(=O)[C@H](CCCNC(=N)N)NC(=O)[C@H](CS)NC(=O)[C@H](CO)NC(=O)[C@H](CC(=O)O)NC(=O)[C@H](CC(C)C)NC(=O)[C@H](Cc1ccc(O)cc1)NC(=O)[C@H](CCCCN)NC(=O)[C@H](CO)NC(=O)[C@H](Cc1ccc(O)cc1)NC(=O)[C@H](CC(=O)O)NC(=O)[C@H](CO)NC(=O)[C@@H](NC(=O)[C@H](Cc1ccccc1)NC(=O)[C@@H](NC(=O)CNC(=O)[C@H](CCC(N)=O)NC(=O)[C@@H](CO)NC(=O)[C@@H](N)Cc1c[nH]cn1)[C@@H](C)O)[C@@H](C)O)C(C)C)[C@@H](C)O)C(=O)N[C@@H](C)C(N)=O", "target": "Glucagon-like peptide 1 receptor (GLP1R, Homo sapiens, UniProt P43220)", "assay": "reporter gene, agonist, luciferase", "EC50 [µM]": "~0.5"}
{"Structure (SMILES)": "Cn1ccc(-c2ccc(Cn3cc(C(=O)N[C@H]4CCCC[C@@H]4O)c4c(F)cc(F)cc43)cn2)n1", "target": "Muscarinic acetylcholine receptor M1 (Chrm1, Rattus norvegicus, UniProt P08482)", "assay": "calcium signal, agonist", "EC50 [µM]": 4.6}
{"Structure (SMILES)": "Nc1ccn(C2CCC(OC(C(=O)O)P(=O)(O)O)C2)c(=O)n1 (racemic)", "target": "Gag-Pol polyprotein, reverse transcriptase (gag-pol, Human immunodeficiency virus type 1 group M subtype B, UniProt P04585)", "assay": "post-translocation trapping, Fe2+ footprinting", "conditions": "50% complexes post-translocated", "EC50 [µM]": "1.4 ± 0.49"}
{"note": "Some of these lines once more:"}
{"Structure (SMILES)": "CC1(C)CCC(C)(C)c2c1cc(C(=O)Nc1cc(F)c(C(=O)O)c(F)c1)c(O)c2Cl", "target": "Retinoic acid receptor beta (RARB, Homo sapiens, UniProt P10826)", "assay": "reporter gene, agonist, luciferase", "EC50 [µM]": "> 5"}
{"Structure (SMILES)": "Cc1cc(O)cc(C)c1CC(N)C(=O)NC1CCNc2c(Cc3ccccc3)cc(Cc3ccccc3)cc21 (stereo not shown)", "target": "Delta-type opioid receptor (Oprd1, Rattus norvegicus, UniProt P33533)", "assay": "GTPγS binding, agonist, radiometric", "conditions": "cell membranes", "EC50 [µM]": 0.38}
